# Published values of several laboratories.
# Lines come from different studies, so protocols differ. Numbers after ± are the reported error.
SMILES,test,test system,setting,how to read,measurement,result
O=C([O-])c1cccc(CN(CCN(Cc2cn(Cc3ccccc3)nn2)Cc2cccc(C(=O)[O-])n2)Cc2cn(Cc3ccccc3)nn2)n1.[177Lu+3],,human serum,"1.5 h, 37 °C, together with: 177Lu",,radiometal bound to chelator,55%
Oc1ccc2ccccc2c1/N=N/c1ccccc1,,"Sprague-Dawley rats both sexes, whole blood","oral, 50 mg/kg",,absorption rate constant,4 h⁻¹
Cc1cc2c(cc1C1(c3ncc(C(=O)O)cn3)CC1)C(C)(C)CCC2(C)C,,"Sprague-Dawley rat, male","oral, 100 mg/kg, 24 h, sesame oil vehicle",,blood cholesterol,49 ± 5.7 mg/dL
CCC/C(=C\C1=C(F)C(=O)c2ccccc2C1=O)C(=O)N(CC)CC,,mouse liver S9,"1 µM, pH 7.4, phase I metabolism",,CLint scaled,25.9 mL/min/kg
O=C(NCCCN(CCCCN(CCCNC(=O)c1cccc(=O)n1[O-])C(=O)c1cccc(=O)n1[O-])C(=O)c1cccc(=O)n1[O-])c1cccc(=O)n1[O-].[89Zr+4],radio-TLC,PBS,"5 d, pH 7.4, 37 °C, together with: Co^2+ 10-fold excess",,intact complex,98.6 ± 2%
O=[11C](OC(C(F)(F)F)C(F)(F)F)N1CCC(CNS(=O)(=O)c2ccc(Cl)cc2)CC1,PET,"Sprague-Dawley rat, cerebellum","intravenous, dose not given, baseline",,radioactivity uptake,1.58 SUV
Cc1[nH]nc2c1N=C(c1ccccc1Cl)c1cnc(N(CCO)CCO)cc1N2,,"human male, urine","oral, 10 mg, 0-72 h",,urinary excretion,0.19 %Dose
CC12CC(c3ccc(S(C)(=O)=O)cc3)C3=C4CCC(=O)C=C4CCC3C1CCC2(O)C(F)(F)C(F)(F)F (stereo not shown),,"human, plasma","oral, 4 mg, geometric mean, together with: itraconazole 200 mg/day",,AUC0–24,302 ng·h/mL
Oc1cc2nc(c1)CNCc1cc(O)cc(n1)CNC2,,mouse hepatocytes,"2 µM, 0 to 240 min",,compound depleted,31%
N=C(N)NCCC[C@@H]1NC(=O)[C@H](Cc2c[nH]c3ccccc23)NC(=O)[C@@H](CC2CCCCC2)NC(=O)[C@@H]2CCCN2C(=O)[C@@H](NC(=O)CCc2ccccc2)CCCNC1=O,,"C57BL/6J mice, brain","subcutaneous, 1 mg/kg, two-compartment model",,apparent distributional clearance,0.7 ng/(min·ng/g)
C=CC(=O)Nc1cc(Nc2nccc(-c3cn(C4CC4)c4ccccc34)n2)c(OC)cc1N(C)CCNC,radiolabelled metabolite profiling,"human male, plasma","oral, 110 mg, 10 h",,plasma concentration,12.5 ng/g
CCCC[C@H](NC(=O)CNC(=O)CNC(=O)CN1CCN(CC(=O)O)CCN(CC(=O)O)CC1)C(=O)N[C@H]1CC(=O)NCCCC[C@@H](C(N)=O)NC(=O)[C@H](Cc2c[nH]c3ccccc23)NC(=O)[C@H](CCCNC(=N)N)NC(=O)[C@@H](Cc2ccccc2)NC(=O)[C@H](Cc2c[nH]cn2)NC1=O [copper-64 labelled],,"female C57 mouse, B16/F1 melanoma","intravenous, 0.037 MBq, 24 h",reference: tumour over muscle,uptake ratio,106
CCC(CC)[C@H](NC(C)=O)[C@@H]1[C@H](O)[C@@H](C(=O)N[C@H](C(=O)O)[C@@H](C)CC)C[C@H]1NC(=N)N,,rat plasma,37 °C,,t1/2,5.3 ± 0.8 h
COc1cc(O)c(-c2cc(-c3cc(-c4c(O)cc(OC)c5c4C[C@@H](C)N[C@@H]5C)c4cc(C)cc(OC)c4c3O)c(O)c3c(OC)cc(C)cc23)c2c1[C@@H](C)N[C@H](C)C2,metabolic stability,"male CD-1 mouse, liver microsomes","1 µM, 30 min",,compound remaining,99%
CN(C)c1cc(CN2CCCCC2)c(O)c2c1C[C@H]1C[C@H]3[C@H](N(C)C)C(O)=C(C(N)=O)C(=O)[C@@]3(O)C(O)=C1C2=O,,"cynomolgus monkey, plasma","oral, 5 mg/kg",,Tmax,4 h
COc1cc(NC(C)=O)c2c(c1O)-c1c(OC)c(OC)cc3c1C(C2)N(C)CC3 (stereo not shown),,rat kidney homogenate,"5 µg/mL, 24 h, room temperature, post-preparative storage",,remaining compound,87.1 ± 1%

# A few entries again:
SMILES,test,test system,setting,how to read,measurement,result
COc1cc(O)c(-c2cc(-c3cc(-c4c(O)cc(OC)c5c4C[C@@H](C)N[C@@H]5C)c4cc(C)cc(OC)c4c3O)c(O)c3c(OC)cc(C)cc23)c2c1[C@@H](C)N[C@H](C)C2,metabolic stability,"male CD-1 mouse, liver microsomes","1 µM, 30 min",,compound remaining,99%
CN(C)c1cc(CN2CCCCC2)c(O)c2c1C[C@H]1C[C@H]3[C@H](N(C)C)C(O)=C(C(N)=O)C(=O)[C@@]3(O)C(O)=C1C2=O,,"cynomolgus monkey, plasma","oral, 5 mg/kg",,Tmax,4 h
